Published values collected from several papers.
Parts stem from different laboratories: compare values within a part only. “And” joins repeats or separate records; there may be more than shown.
Sequence of UniProt Q13233 (whole entry, looked up): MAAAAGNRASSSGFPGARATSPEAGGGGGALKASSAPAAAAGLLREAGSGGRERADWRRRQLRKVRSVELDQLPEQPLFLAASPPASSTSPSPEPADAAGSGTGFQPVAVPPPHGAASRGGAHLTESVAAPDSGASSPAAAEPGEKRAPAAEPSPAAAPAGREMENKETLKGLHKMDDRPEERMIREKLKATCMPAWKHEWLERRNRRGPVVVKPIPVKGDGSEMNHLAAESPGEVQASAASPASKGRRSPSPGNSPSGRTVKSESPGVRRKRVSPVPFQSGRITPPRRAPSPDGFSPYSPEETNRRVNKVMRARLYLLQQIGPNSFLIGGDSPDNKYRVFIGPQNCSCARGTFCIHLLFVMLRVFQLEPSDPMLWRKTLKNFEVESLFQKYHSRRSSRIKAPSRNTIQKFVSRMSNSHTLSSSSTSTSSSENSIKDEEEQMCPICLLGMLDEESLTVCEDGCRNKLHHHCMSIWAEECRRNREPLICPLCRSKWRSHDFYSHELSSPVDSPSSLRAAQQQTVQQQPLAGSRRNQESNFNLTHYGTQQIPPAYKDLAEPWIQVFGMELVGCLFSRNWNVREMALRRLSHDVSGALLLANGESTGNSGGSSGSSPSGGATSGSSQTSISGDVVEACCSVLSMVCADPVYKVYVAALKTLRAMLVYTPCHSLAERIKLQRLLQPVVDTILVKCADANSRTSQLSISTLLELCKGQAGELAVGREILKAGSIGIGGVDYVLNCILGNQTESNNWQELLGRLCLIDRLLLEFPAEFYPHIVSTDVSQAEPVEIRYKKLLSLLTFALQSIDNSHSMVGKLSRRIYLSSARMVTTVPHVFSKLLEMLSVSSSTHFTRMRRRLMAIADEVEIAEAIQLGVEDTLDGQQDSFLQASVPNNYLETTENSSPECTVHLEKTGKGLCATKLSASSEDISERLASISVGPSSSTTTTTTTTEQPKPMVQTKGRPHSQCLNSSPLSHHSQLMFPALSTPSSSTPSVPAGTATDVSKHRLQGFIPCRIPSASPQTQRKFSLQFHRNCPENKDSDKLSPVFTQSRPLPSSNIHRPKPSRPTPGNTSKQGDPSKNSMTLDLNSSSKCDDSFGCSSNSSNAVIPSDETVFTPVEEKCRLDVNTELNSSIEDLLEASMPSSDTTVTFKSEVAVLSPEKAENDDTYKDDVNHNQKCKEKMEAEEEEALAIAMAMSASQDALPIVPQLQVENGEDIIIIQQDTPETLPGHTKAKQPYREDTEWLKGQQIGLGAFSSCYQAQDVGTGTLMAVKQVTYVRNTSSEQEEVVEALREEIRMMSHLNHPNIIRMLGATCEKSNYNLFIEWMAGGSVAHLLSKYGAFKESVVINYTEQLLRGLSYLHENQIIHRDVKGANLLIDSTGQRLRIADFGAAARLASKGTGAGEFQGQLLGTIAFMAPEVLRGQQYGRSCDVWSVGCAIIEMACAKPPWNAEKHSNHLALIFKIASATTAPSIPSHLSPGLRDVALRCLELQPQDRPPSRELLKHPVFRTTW

Sample 1
Target: Interferon regulatory factor 5, full length, phosphomimetic (IRF5, Homo sapiens, UniProt Q13568-2, residues 1-514, S451D/S453D/S456D/S462D)
Method: protein-binding microarray
Form: double-stranded DNA, one strand shown
Matrix: in vitro
Concentration: 940 nM top
Setting: 60-bp whole probe
Added: salmon DNA 0.4 mg/ml
Baseline: random background probes
Reading: higher = stronger binding
All sequences stand within: GCCTAGCAC … GTCTTGATTCGCTTGACGCTGCTG
Strand | fitted relative affinity [z-score]
TTATGTCTCGGTCTCGGTTAGTGCTAG | 5.76
GACGATATCGGTATCGAGACGTGCTAG | 2.33
TCACTCACCTAGTTTCATACTGTGCTA | 2.22
GACGGTATCGTTCTCCTGACGTGCTAG | 4.56
GTTTATTTATTTTTACATTAGTGCTAG | 0.807
TTAGGAGTGGGTATCGGTTAGTGCTAG | 4.04
TATAATATATATATTGTTAGGTGCTAG | -0.202
GACGGACTGCTACTGCTTACGTGCTAG | -0.271

Sample 2
Organism: Sarcocystis neurona
Observed: parasite growth
Concentration: 10 µM
Setting: secondary screen
SMILES | inhibition
NS(=O)(=O)c1cc2c(cc1C(F)(F)F)NC(Cc1ccccc1)NS2(=O)=O (centres unmarked) | -35.9%
CCN1CCC[C@H]1CNC(=O)c1c(O)c(Cl)cc(Cl)c1OC | -27.6%
CC(C)Cc1ccc(C(C)C(=O)O)cc1 (centres unmarked) | -30.8%

Sample 3
Target: Beta-1 adrenergic receptor (ADRB1, Homo sapiens, UniProt P08588)
Sequence of UniProt P08588 (whole entry, looked up): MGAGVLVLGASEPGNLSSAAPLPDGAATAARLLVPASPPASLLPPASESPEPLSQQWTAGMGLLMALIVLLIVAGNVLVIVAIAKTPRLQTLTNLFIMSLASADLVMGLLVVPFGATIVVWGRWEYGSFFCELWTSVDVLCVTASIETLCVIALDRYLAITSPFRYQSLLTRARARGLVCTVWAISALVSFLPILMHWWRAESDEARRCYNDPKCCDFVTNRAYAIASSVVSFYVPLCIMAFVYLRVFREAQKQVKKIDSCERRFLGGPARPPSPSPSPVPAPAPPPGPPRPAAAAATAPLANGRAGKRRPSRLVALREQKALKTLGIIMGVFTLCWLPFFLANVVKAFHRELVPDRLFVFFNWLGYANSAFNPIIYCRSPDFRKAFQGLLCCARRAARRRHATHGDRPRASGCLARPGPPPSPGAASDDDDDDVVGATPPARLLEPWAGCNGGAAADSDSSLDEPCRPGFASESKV
Observed: ligand displacement
Concentration: 10 µM
SMILES | inhibition [%]
NC(=O)c1ccc2nc(-c3ccc(C4(N)CCC4)cc3)c(-c3ccccc3)n2n1 | 16.8
COc1cc(C(=O)O)ncc1C#Cc1ccccc1NS(=O)(=O)c1cccc2c(N(C)C)ccnc12 | 16.7
Cc1cc(Nc2nccc(C)n2)cc(-c2cnc([C@@]3(O)CC[C@H](C(=O)O)C(C)(C)C3)s2)c1 | -9.08
O=S(=O)(NC1CCC(c2cc(F)ccc2F)(S(=O)(=O)c2ccc(Cl)cc2)CC1)C(F)(F)F (centres unmarked) | -16.2
Cn1nc(C(=O)NCc2ccc(C(=O)O)cc2)cc1-c1ccc2[nH]ccc2c1 | -18.9
CCC(=NO)C(C)=Cc1ccc(F)c(C)c1 | 10.2
Cc1ccccc1Oc1cc(-n2c(=O)cc(C(F)(F)F)[nH]c2=O)c2ccccc2c1Cl | -5.52
Nc1nc(NCc2ccccc2)nc(-c2cccc(CO)c2)n1 | -3.07
CC(=O)N1CCC(c2ccc(C(=O)NC3=NCCN3)cc2C(F)(F)F)CC1 | -18
Cc1noc([C@H]2C[C@@H](c3ccc(C(F)(F)F)cc3)CN(C(=O)N3CCS(=O)(=O)C3)C2)n1 | 3.66
O=C(N[C@H]1CCCCC/C=C\C2C[C@@]2(C(=O)O)NC(=O)[C@@H]2C[C@@H](Oc3ccncc3)CN2C1=O)OC1CCCC1 (some centres unmarked) | -14.8
CN1CCN(c2ccnc(NCCc3ccccc3)n2)CC1 | 6.05
CN(C)C(=O)c1sc2nc(N3CCC(S(C)(=O)=O)CC3)cc(C(F)(F)F)c2c1N | -41.2
Nc1cnc(N2CCc3cc(S(=O)(=O)Nc4c(F)cc(Cl)cc4F)cc(N4CCCC4=O)c32)nc1 | 8.84
CCc1ccccc1C(=O)Nc1n[nH]c2c(C)c(F)c(C3C(C#N)=C(C)N(C)C(C)=C3C#N)cc12 | 1.59
COc1cccc(NC(=O)c2nc3scc(CN(C)Cc4ccccc4)c3c(=O)[nH]2)c1 | 30.8
C[C@H](c1ccnc(Nc2nc3ccc(-c4cc(N(C)C)ncn4)cc3[nH]2)c1)N1CCN(C(=O)CC(F)(F)F)CC1 | 24.3
CNC(=N)NCCC[C@H](NC(=O)[C@H](CC(C)C)NC(=O)NNC(=O)[C@H](Cc1ccccc1)NC(=O)[C@H](CO)NC(=O)[C@H](CC(N)=O)NC(=O)[C@@H](Cc1ccncc1)NC(=O)[C@H](N)Cc1ccc(O)cc1)C(=O)N[C@@H](Cc1ccccc1)C(N)=O | 0.557
CCOc1ccc(S(=O)(=O)Nc2ccc(Cl)cc2C#Cc2cnc(C(=O)O)cc2OC)c2ncccc12 | 18.8
CC1=C(C#N)C(c2ccc3[nH]nc(C)c3c2)C(C#N)=C(C)N1 | 2.16
CN([C@@H]1CCc2c(CC(=O)O)c3ccccc3n2C1)S(=O)(=O)c1ccc(F)cc1 | -2.68
c1ccc(C2CCN(c3cnc4c(N5CCOCC5)nccn34)CC2)cc1 | 23.5
CC1CCN(c2ccnc(NCc3cn(C)cn3)n2)CC1 | 3.97

Sample 4
Target: RING finger protein unkempt homolog, zinc fingers 1-6, GST-SBP tag (UNK, Homo sapiens, UniProt Q9C0B0, residues 30-357)
Sequence of UniProt Q9C0B0 (30-357, looked up): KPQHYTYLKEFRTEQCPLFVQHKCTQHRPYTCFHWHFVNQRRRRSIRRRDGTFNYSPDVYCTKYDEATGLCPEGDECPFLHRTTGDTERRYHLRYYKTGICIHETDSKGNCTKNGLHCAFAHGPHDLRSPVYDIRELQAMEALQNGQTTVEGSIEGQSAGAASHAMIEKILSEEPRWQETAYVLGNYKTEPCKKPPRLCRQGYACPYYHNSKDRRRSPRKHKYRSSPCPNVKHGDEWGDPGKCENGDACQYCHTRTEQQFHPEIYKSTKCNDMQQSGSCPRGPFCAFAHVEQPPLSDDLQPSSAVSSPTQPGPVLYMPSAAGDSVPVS
Method: RNA Bind-n-Seq
Form: RNA
Matrix: in vitro
Concentration: not given
Setting: RNA with constant flanks, human-mouse chimeric sites, ends assumed
Baseline: input RNA pool
Reading: higher = stronger binding
Strand | bound/input enrichment [ratio]
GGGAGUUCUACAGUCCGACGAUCCCCUCCCCGGGCCACCCGCCCGCCCAAGCUCCCCGCCGAGAUCCAGGUUUCUUCUUAUUUCAUAGCAAAUAAGAAAAAUGUUCUACGCACAUUUUGUCCUCAGUAAAAGAGGGCCUCUGGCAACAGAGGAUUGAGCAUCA | 1.32
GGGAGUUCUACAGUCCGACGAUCGGACAUCUGUCAAAUUGUAUUUCCCGUGUGAAACAAGUGAGCACUUUGAUACACUUCAUCUGCUUGUACAUCUGUAUGAUAGAGAAAUGUAAAUAUGUUAAUCCAAGCAAUGUGUCACUUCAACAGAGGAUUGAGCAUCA | 0.254
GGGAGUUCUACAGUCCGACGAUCAUAAAGGCUAUGUUGAGUGGUCCAGGUCAGUUUGCUGAGAAUGAAACCAACGAGGUCAAUUUUAGAGAGAUACCUUCACAUGUGCUAUCAAAAGUGUGCAUGUAUUUUACGUACAAGGUCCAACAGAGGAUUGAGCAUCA | 0.227
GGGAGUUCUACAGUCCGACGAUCGAGCGUCUUGCCCGCACCGGGAUCAUAGUGACCACUAGUGAGGCUGUCCUCCUACAGCUGGUAGCUGACAAAGACCACCCGAAGUUCAAGGAAAUUCAGAACCUAAUUAAGGCGAGUGCCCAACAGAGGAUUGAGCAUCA | 0.182
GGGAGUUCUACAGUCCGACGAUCAAAGAGAAACUAAAGCAACUAAUAGAGAAGAGGAUUGGGCAAAGAGAUUUCAUAGAGAAACUAGGAUUUAUUAGCAAACAUGAGUUAUAUUCCAGAGCGUCUCAGAAACCCCAGCCAAACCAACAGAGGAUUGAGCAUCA | 3.97
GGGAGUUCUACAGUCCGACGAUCGAAACUAUUCCUAAAGAGGAGAAAGCUGAGAAGGAUGCUCGGAGAUCGUCUCUCGAGAAACAUAGAAAAGAAAAGCCUUUUAAAACCGGGAGAGGCAGAAUUUCCACUCCUGAAAGAAAACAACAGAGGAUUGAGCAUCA | 0.549
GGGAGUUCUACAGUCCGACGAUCGGUGGGGGGUUGUCAUUCGUUUGAGCUGCUGAUUUUCAUGAGUCGCCUUCAAAACUCUCGUGUAGGGUUGACAAUGUGGGGGGGUGGGAAAUCUAGCUUAUUCUUUUAUUUUCAAGUCCACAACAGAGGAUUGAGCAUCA | 21.8
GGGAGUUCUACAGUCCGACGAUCUACUACUAUGAUGGUGAUAUUGGCAAUUAUUAUUAUGGCCAGGGUCAUCCCAUGAAGCCUCAUAGAAUCCGGAUGACCCAUAACUUGCUGCUAAAUUAUGGCUUAUACCGAAAAAUGGAACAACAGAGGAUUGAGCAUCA | 0.219

Sample 5
Species: human
Matrix: microsomes or S9
Concentration: 2 µM
Time: 0.5 h
Structure (SMILES) | remaining compound [%]
COc1cc(=O)n(C)cc1C(=O)N1CCC(n2cc(-c3ccccc3)nn2)C1 (centres unmarked) | 82.9
O=C(NCC1Cc2ccccc2CO1)c1cnn2c1OCCC2 (centres unmarked) | 85.4
CN1Cc2cc(NCc3c(Cl)cnn3C)ccc2NC1=O | 75.4

Sample 6
Cell line: A-375
Concentration: 100 µM
Time: 36 h
SMILES | viability
N[C@H](C(=O)O)[C@H](O)c1ccc(O)c(O)c1 | 57%
CCCCNc1cc(C(=O)O)cc(S(N)(=O)=O)c1Oc1ccccc1 | 117%
CN1CCC(=C2c3ccccc3CC(=O)c3sccc32)CC1 | 94.3%

Further values, each from its own experiment
SMILES | target or system | assay | test system | conditions | endpoint | value
Cc1ccc(NC(=O)c2ccnc(C(F)(F)F)c2)cc1-c1cc(OCCO)nc(N2CCOCC2)c1 | MAP3K1 (Homo sapiens, UniProt Q13233) | binding |  | 1 µM | remaining binding | 100%
CC(C)(C)c1cnc(CSc2cnc(NC(=O)C3CCN(CCCCCSc4cccc5c4CN(C4CCC(=O)NC4=O)C5=O)CC3)s2)o1 (centres unmarked) |  |  | NSG mouse, HuT78 xenograft | dose not given, end of study | tumour weight | 0.502 g and 0.359 g and 0.383 g and 0.32 g and 0.414 g

For quick reference, copied from above (sample 5):
Structure (SMILES) | remaining compound [%]
O=C(NCC1Cc2ccccc2CO1)c1cnn2c1OCCC2 (centres unmarked) | 85.4
CN1Cc2cc(NCc3c(Cl)cnn3C)ccc2NC1=O | 75.4
COc1cc(=O)n(C)cc1C(=O)N1CCC(n2cc(-c3ccccc3)nn2)C1 (centres unmarked) | 82.9
